Measured values collected from several papers.
Compare with care: the assays were run in different laboratories. ± marks the error that the study gave.

Structure (SMILES) | assay | system | setting | scale | endpoint | result
CC[C@H]1CN2CCc3cc(OC)c(OC)cc3[C@@H]2C[C@@H]1C[C@@H]1c2cc(OC)c(OC)cc2CCN1C(=O)OCc1ccc(NC(=O)[C@@H]2CCCN2C(=O)[C@H](C)NC(=O)[C@H](CCC(N)=O)NC(=O)[C@H](CC(C)C)NC(=O)[C@H](CCCCN)NC(=O)[C@H](CO)NC(=O)[C@H](CO)NC(=O)[C@H](Cc2cnc[nH]2)NC(C)=O)cc1 | convulsions and death | mouse | intravenous, dose not given, single dose |  | toxic dose | 822 nmol
CC(C)C[C@@H]1NC(=O)[C@H](C(C)C)NC(=O)[C@H](CO)NC(=O)CNC(=O)CNC(=O)[C@H](CCCNC(=N)N)NC(=O)[C@@H]2CCCN2C(=O)[C@@H](NC(=O)CC[C@H](NC(=O)c2ccc(N(C)Cc3cnc4nc(N)nc(N)c4n3)cc2)C(=O)O)C(C)(C)SSC[C@@H](C(=O)O)NC(=O)CNC(=O)[C@H]([C@@H](C)O)NC(=O)[C@H](C(C)C)NC1=O |  | acetate buffer | 100 µM, pH 5.0, 70 °C |  | half-life | 22.2 days
CCCC[C@H](NC(=O)CCCCCCCNC(=O)c1ccc(NN)nc1)C(=O)N[C@H]1CC(=O)NCCCC[C@@H](C(N)=O)NC(=O)[C@H](Cc2c[nH]c3ccccc23)NC(=O)[C@H](CCCNC(=N)N)NC(=O)[C@@H](Cc2ccccc2)NC(=O)[C@H](Cc2c[nH]cn2)NC1=O [technetium-99m labelled] |  | C57 mouse, B16/F1 melanoma, bone | intravenous, 24 h |  | uptake | 0.12 ± 0.07 %ID/g
N=C(N)NCCC[C@@H]1NC(=O)[C@H](CCCCNC(=O)CNC(=O)CNC(=O)CNC(=O)CC[C@H](NC(=O)CCOCCOCCOCCOCCNC(=O)CC[C@H](NC(=O)CN2CCN(CC(=O)O)CCN(CC(=O)O)CCN(CC(=O)O)CC2)C(=O)NCCOCCOCCOCCOCCC(=O)N[C@@H](CCC(=O)NCC(=O)NCC(=O)NCC(=O)NCCCC[C@@H]2NC(=O)[C@@H](Cc3ccccc3)NC(=O)[C@H](CC(=O)O)NC(=O)CNC(=O)[C@H](CCCNC(=N)N)NC2=O)C(=O)NCC(=O)NCC(=O)NCC(=O)NCCCC[C@@H]2NC(=O)[C@@H](Cc3ccccc3)NC(=O)[C@H](CC(=O)O)NC(=O)CNC(=O)[C@H](CCCNC(=N)N)NC2=O)C(=O)NCC(=O)NCC(=O)NCC(=O)NCCCC[C@@H]2NC(=O)[C@@H](Cc3ccccc3)NC(=O)[C@H](CC(=O)O)NC(=O)CNC(=O)[C@H](CCCNC(=N)N)NC2=O)NC(=O)[C@@H](Cc2ccccc2)NC(=O)[C@H](CC(=O)O)NC(=O)CNC1=O [indium-111 labelled] |  | athymic nude mice, female, U-87 MG glioma xenograft, tumour and kidney | intravenous, 0.5 h | relative to: tumour over kidney | tumour to tissue ratio | 1.07 ± 0.27
C[C@@H](O)[C@H](NC(=O)[C@@H]1CSSC[C@H](NC(=O)[C@@H](Cc2ccccc2)NC(=O)CN2CCCN3CCN(CCCN(CP(=O)(O)O)CC3)CC2)C(=O)N[C@@H](Cc2ccc(O)cc2)C(=O)N[C@H](Cc2c[nH]c3ccccc23)C(=O)N[C@@H](CCCCN)C(=O)N[C@@H]([C@@H](C)O)C(=O)N1)C(=O)O [copper-64 labelled] |  | male Lewis rat, AR-42J tumour-bearing | dose not given, 1 to 24 h |  | activity excreted via kidneys | < 10%
CCCC[C@H](NC(=O)CNC(=O)CNC(=O)c1ccc(NN)nc1)C(=O)N[C@H]1CC(=O)NCCCC[C@@H](C(N)=O)NC(=O)[C@H](Cc2c[nH]c3ccccc23)NC(=O)[C@H](CCCNC(=N)N)NC(=O)[C@@H](Cc2ccccc2)NC(=O)[C@H](Cc2c[nH]cn2)NC1=O [technetium-99m labelled] |  | C57 mouse, B16/F1 melanoma, urine | 2 h, together with: NDP-MSH 6.07 nmol |  | tissue uptake | 94.9 ± 1.39 %ID
N=C(N)NCCC[C@@H]1NC(=O)[C@H](CCCCNC(=O)CCOCCOCCOCCOCCNC(=O)CC[C@H](NC(=O)CCOCCOCCOCCOCCNC(=O)[C@H](CCCCNC(=O)c2ccc(NN)nc2)NC(=O)c2ccc(NN)nc2)C(=O)NCCOCCOCCOCCOCCC(=O)NCCCC[C@@H]2NC(=O)[C@@H](Cc3ccccc3)NC(=O)[C@H](CC(=O)O)NC(=O)CNC(=O)[C@H](CCCNC(=N)N)NC2=O)NC(=O)[C@@H](Cc2ccccc2)NC(=O)[C@H](CC(=O)O)NC(=O)CNC1=O [technetium-99m labelled] | radio-HPLC | athymic nude mice | dose not given | relative to: collected radioactivity | radioactivity in urine | > 90%
CCCC[C@@H](NC(=O)[C@H](Cc1c[nH]c2ccccc12)NC(=O)[C@@H](N)CSC1CC(=O)N(CC2CCC(C(=O)N[C@H]3C[C@H](O[C@H]4C[C@](O)(C(=O)CO)Cc5c(O)c6c(c(O)c54)C(=O)c4c(OC)cccc4C6=O)O[C@@H](C)[C@H]3O)CC2)C1=O)C(=O)N[C@@H](CCC(=O)O)C(=O)N[C@@H](C)C(=O)N[C@@H](C)C(=O)N[C@@H](Cc1ccc(O)cc1)C(=O)N[C@@H](CCC(N)=O)C(=O)N[C@H](CCCNC(=N)N)C(=O)N[C@@H](Cc1ccccc1)C(=O)N[C@@H](CC(C)C)C(N)=O (stereo partly shown) |  | water | up to 48 h, pH 7.0 |  | intact compound | > 80%
N=C(N)NCCC[C@@H]1NC(=O)[C@H](CCCCNC(=O)CCOCCOCCOCCOCCNC(=O)CC[C@H](NC(=O)CCOCCOCCOCCOCCNC(=O)CC[C@H](NC(=O)CN2CCN(CC(=O)O)CCN(CC(=O)O)CCN(CC(=O)O)CC2)C(=O)NCCOCCOCCOCCOCCC(=O)N[C@@H](CCC(=O)NCCOCCOCCOCCOCCC(=O)NCCCC[C@@H]2NC(=O)[C@@H](Cc3ccccc3)NC(=O)[C@H](CC(=O)O)NC(=O)CNC(=O)[C@H](CCCNC(=N)N)NC2=O)C(=O)NCCOCCOCCOCCOCCC(=O)NCCCC[C@@H]2NC(=O)[C@@H](Cc3ccccc3)NC(=O)[C@H](CC(=O)O)NC(=O)CNC(=O)[C@H](CCCNC(=N)N)NC2=O)C(=O)NCCOCCOCCOCCOCCC(=O)NCCCC[C@@H]2NC(=O)[C@@H](Cc3ccccc3)NC(=O)[C@H](CC(=O)O)NC(=O)CNC(=O)[C@H](CCCNC(=N)N)NC2=O)NC(=O)[C@@H](Cc2ccccc2)NC(=O)[C@H](CC(=O)O)NC(=O)CNC1=O [indium-111 labelled] |  | athymic nude mice, female, U-87 MG glioma xenograft, tumour and blood | intravenous, 72 h | relative to: tumour over blood | tumour to tissue ratio | 52.9 ± 4.95
CC(C)C[C@H](NC(=O)[C@@H]1CCCN1C(=O)[C@H](CCCCN)NC(=O)[C@@H](N)CO)C(=O)N1CCC[C@H]1C(=O)N[C@@H](CCC(=O)O)C(=O)N[C@H](C(=O)N[C@H](C(=O)N[C@@H](CC(=O)O)C(=O)N[C@@H](CCC(=O)O)C(=O)N[C@@H](Cc1ccc(O)cc1)C(=O)N[C@@H](Cc1cn(CCOCCOCCOCCNC(=O)CCc2ccc(O)c(CN(CCN(CC(=O)O)Cc3cc(CCC(=O)NCCCC[C@H](NC(=O)N[C@@H](CCC(=O)O)C(=O)O)C(=O)O)ccc3O)CC(=O)O)c2)nn1)C(=O)O)[C@@H](C)O)C(C)C [gallium-68 labelled] |  | NMRI nu/nu mice, LNCaP tumour, kidneys | 135.34 nmol/kg, low molar activity |  | standardized uptake value | 7.38 g/g
N=C(N)NCCC[C@@H]1NC(=O)[C@H](CCCCNC(=O)CC[C@H](NC(=O)CCOCCOCCOCCOCCNC(=O)CN2CCN(CC(=O)O)CCN(CC(=O)O)CCN(CC(=O)O)CC2)C(=O)NCCCC[C@@H]2NC(=O)[C@@H](Cc3ccccc3)NC(=O)[C@H](CC(=O)O)NC(=O)CNC(=O)[C@H](CCCNC(=N)N)NC2=O)NC(=O)[C@@H](Cc2ccccc2)NC(=O)[C@H](CC(=O)O)NC(=O)CNC1=O [indium-111 labelled] |  | athymic nude mice, female, U-87 MG glioma xenograft, tumour and lungs | intravenous, 0.5 h | relative to: tumour over lungs | tumour to tissue ratio | 2.04 ± 0.37
CCCC[C@H](NC(=O)CNC(=O)CNC(=O)CNC(=O)c1ccc(NN)nc1)C(=O)N[C@H]1CC(=O)NCCCC[C@@H](C(N)=O)NC(=O)[C@H](Cc2c[nH]c3ccccc23)NC(=O)[C@H](CCCNC(=N)N)NC(=O)[C@@H](Cc2ccccc2)NC(=O)[C@H](Cc2c[nH]cn2)NC1=O [technetium-99m labelled] |  | C57 mouse, B16/F1 melanoma | 2 h | relative to: tumour over muscle | uptake ratio | 351
CSCC[C@H](NC(=O)[C@H](CC(C)C)NC(=O)[C@H](Cc1c[nH]cn1)NC(=O)CNC(=O)[C@@H](NC(=O)[C@H](C)NC(=O)[C@H](Cc1c[nH]c2ccccc12)NC(=O)[C@H](CCC(N)=O)NC(=O)CCCCCNC(=O)CNC(=O)CNC(=O)CNC(=O)CSC(C)=O)C(C)C)C(N)=O [technetium-99m labelled] |  | healthy Swiss mouse, large intestine, contents removed | intravenous, 18.5 MBq, 240 min |  | tissue uptake | 19.4 ± 0.9 %ID/g

Some of these lines once more:
Structure (SMILES) | assay | system | setting | scale | endpoint | result
N=C(N)NCCC[C@@H]1NC(=O)[C@H](CCCCNC(=O)CC[C@H](NC(=O)CCOCCOCCOCCOCCNC(=O)CN2CCN(CC(=O)O)CCN(CC(=O)O)CCN(CC(=O)O)CC2)C(=O)NCCCC[C@@H]2NC(=O)[C@@H](Cc3ccccc3)NC(=O)[C@H](CC(=O)O)NC(=O)CNC(=O)[C@H](CCCNC(=N)N)NC2=O)NC(=O)[C@@H](Cc2ccccc2)NC(=O)[C@H](CC(=O)O)NC(=O)CNC1=O [indium-111 labelled] |  | athymic nude mice, female, U-87 MG glioma xenograft, tumour and lungs | intravenous, 0.5 h | relative to: tumour over lungs | tumour to tissue ratio | 2.04 ± 0.37
CCCC[C@H](NC(=O)CNC(=O)CNC(=O)CNC(=O)c1ccc(NN)nc1)C(=O)N[C@H]1CC(=O)NCCCC[C@@H](C(N)=O)NC(=O)[C@H](Cc2c[nH]c3ccccc23)NC(=O)[C@H](CCCNC(=N)N)NC(=O)[C@@H](Cc2ccccc2)NC(=O)[C@H](Cc2c[nH]cn2)NC1=O [technetium-99m labelled] |  | C57 mouse, B16/F1 melanoma | 2 h | relative to: tumour over muscle | uptake ratio | 351
